Published values pooled from the literature.
A part holds a random share of what one study measured. Values joined by “and” are separate records of one study, mostly repeats; a detail may differ.

Block 1
Cell line: mouse MPNST tumor cells
Technique: high-content nuclear imaging
Refers to: cell number
Tested at: 10 µM
Time: 12 h
Notes: mean of 2 replicates
Reference: plate mean
Reading: higher = more cells
| Structure (SMILES) | nuclei count [z-score] |
| --- | --- |
| COc1ccc(-c2ccc(=N)n(CCCC(=O)O)n2)cc1 | -0.158 |
| CCOc1cccc(NC(=O)c2ccc(N3CCCC3)c(C(F)(F)F)c2)c1 | 4.61 |
| C=C(CC)C(=O)c1ccc(OCC(=O)O)c(Cl)c1Cl | -1.12 |
| CC(C)(Oc1ccc(CCNC(=O)c2ccc(Cl)cc2)cc1)C(=O)O | 1.16 |
| O=C1[C@H]2CCCC[C@H]2C(=O)N1CCCCN1CCN(c2nsc3ccccc23)CC1 | -1.47 |
| COCCCOc1ccnc(C[S+]([O-])c2nc3ccccc3[nH]2)c1C (stereo not shown) | 2.34 |
| C=C1C(=O)O[C@@H]2C[C@@]3(C)CCC[C@H](C)C3=C[C@H]12 | -6 |
| C[C@@](Cc1ccc(O)c(O)c1)(NN)C(=O)O | 0.814 |

Block 2
Structure (SMILES): C=CC(=O)N1CCC[C@@H](n2nc(-c3ccc(Oc4ccccc4)cc3)c3c(N)ncnc32)C1
Mode: inhibitor
Tested at: 1 µM
| target | read-out | inhibition [%] |
| --- | --- | --- |
| CDC42BPG (Homo sapiens, UniProt Q6DT37) | – | 15 |
| DCLK1 (Homo sapiens, UniProt O15075) | enzyme activity | 5 |
| Tyrosine-protein kinase ABL1, phosphorylated (ABL1, Homo sapiens, UniProt P00519, T315I) | – | 3 |
| ABL2 (Homo sapiens, UniProt P42684) | enzyme activity | 59 |
| CASK (Homo sapiens, UniProt O14936) | enzyme activity | 15 |
| MYLK3 (Homo sapiens, UniProt Q32MK0) | enzyme activity | 12 |
| KIT (Homo sapiens, UniProt P10721, L576P) | – | 67 |
| NEK4 (Homo sapiens, UniProt P51957) | enzyme activity | 3 |
| PRKCI (Homo sapiens, UniProt P41743) | enzyme activity | 46 |
| Tyrosine-protein kinase ABL1, phosphorylated (ABL1, Homo sapiens, UniProt P00519, Y253F) | – | 53 |

Block 3
Compound: CC(=O)O/N=C1/C(c2c(O)[nH]c3cc(Br)ccc23)=Nc2ccccc21
Read-out: enzyme activity
Mode: inhibitor
Tested at: 0.5 µM
Reference: control
| target | remaining activity |
| --- | --- |
| SRC (Homo sapiens, UniProt P12931) | 26.2% |
| FYN (Homo sapiens, UniProt P06241) | 20.9% |
| STK25 (Homo sapiens, UniProt O00506) | 80.9% |
| FGR (Homo sapiens, UniProt P09769) | 14.8% |
| TAOK3 (Homo sapiens, UniProt Q9H2K8) | 72.4% |
| ITK (Homo sapiens, UniProt Q08881) | 76.8% |
| PKN1 (Homo sapiens, UniProt Q16512) | 96.1% |
| MATK (Homo sapiens, UniProt P42679) | 93% |
| PASK (Homo sapiens, UniProt Q96RG2) | 86.2% |
| CDC42BPA (Homo sapiens, UniProt Q5VT25) | 85.8% |
| LIM domain kinase 1 (LIMK1, Homo sapiens, UniProt P53667) | 69.7% |
| AKT1 (Homo sapiens, UniProt P31749) | 99.6% |
| MARK3 (Homo sapiens, UniProt P27448) | 85.4% |
| PRKX (Homo sapiens, UniProt P51817) | 99.9% |
| NEK11 (Homo sapiens, UniProt Q8NG66) | 110% |
| Insulin receptor (INSR, Homo sapiens, UniProt P06213) | 94.8% |
| HIPK1 (Homo sapiens, UniProt Q86Z02) | 83% |
| Cyclin-dependent kinase 3, with cyclin E (CDK3, Homo sapiens, UniProt Q00526) | 36.3% |
| FLT4 (Homo sapiens, UniProt P35916) | 93.7% |
| FER (Homo sapiens, UniProt P16591) | 86.4% |
| ALK (Homo sapiens, UniProt Q9UM73) | 86.7% |
| NLK (Homo sapiens, UniProt Q9UBE8) | 106% |

Block 4
Cell line: HEK293 RAS-independent
Read-out: cell growth
Technique: CellTiter-Glo
| Structure (SMILES) | IC50 [µM] |
| --- | --- |
| CCC(=O)N1CCN(c2nc(OC[C@@H]3CCCN3C)nc3c2CCN(c2cccc4cccc(Cl)c24)C3)C[C@@H]1CC#N | 3.2 |
| CN1CCC[C@H]1COc1nc2c(c(N3CCN(S(C)(=O)=O)[C@@H](CC#N)C3)n1)CCN(c1cccc3cccc(Cl)c13)C2 | 2.1 |
| CC(=O)N1CCN(c2nc(OC[C@@H]3CCCN3C)nc3c2CCN(c2cccc4cccc(Cl)c24)C3)C[C@@H]1CC#N | 2.3 |

Block 5
Target: Calcium/calmodulin-dependent protein kinase type II subunit alpha (CAMK2A, Homo sapiens, UniProt Q9UQM7)
Read-out: enzyme activity
Mode: inhibitor
Tested at: 10 µM
| SMILES | inhibition [%] |
| --- | --- |
| CC(=O)[C@H]1CC[C@H]2[C@@H]3CC=C4C[C@@H](O)CC[C@]4(C)[C@H]3CC[C@]12C | 6 |
| CCCCC[C@H](O)CC(=O)CCc1ccc(O)c(OC)c1 | 10 |
| CCCCCCCCCCC(=O)O | -6 |
| C[C@@H](CO)[C@@H]1CC[C@@]2(CC[C@]3(C)[C@H](CC[C@@H]4[C@@]5(C)CC[C@H](O[C@@H]6O[C@H](CO)[C@@H](O)[C@H](O)[C@H]6O[C@@H]6O[C@H](CO)[C@@H](O)[C@H](O)[C@H]6O)[C@@](C)(CO[C@@H]6O[C@H](CO)[C@@H](O)[C@H](O)[C@H]6O)[C@@H]5CC[C@]43C)[C@H]2O)CO1 | 21 |
| O=C(/C=C/c1ccc(O)cc1)c1ccc(O)cc1O | 13 |

Other studies, line by line
HTR2B: 5-hydroxytryptamine receptor 2B (HTR2B, Homo sapiens, UniProt P41595)
| Compound | target | read-out | technique | medium | tested at | quantity | value |
| --- | --- | --- | --- | --- | --- | --- | --- |
| O=C(Nc1cnc(Oc2ccc(F)cc2)nc1)N1CCc2ncccc2[C@@H]1c1ccc(F)cc1 | HTR1D (Homo sapiens, UniProt P28221) | binding | radioligand binding | – | 10 µM | inhibition | 4.38% |
| O=C1c2ccc(Nc3ccc(F)cc3F)cc2CCc2ccc(OC[C@H](O)CO)cc21 | HTR2B | cell-free assay | – | – | 10 µM | inhibition | 83.1% |
| Cc1c(NC(=O)c2cc(C(N)=O)nc3cc(F)ccc23)c(C(F)(F)F)nn1Cc1ccc(C(C)(C)C)cc1 | HTR2B | binding | radioligand binding | – | 10 µM | inhibition | -8.78% |
| CN(c1ccnc(CNc2nc(Nc3ccc4c(c3)CC(=O)N4)ncc2C(F)(F)F)n1)S(C)(=O)=O | PTK2B (Homo sapiens, UniProt Q14289) | target engagement | NanoBRET | live cells | – | EC50 | 24.8 µM and 53.7 µM and 31.7 µM |

Repeated from above (other studies, line by line):
| Compound | target | read-out | technique | medium | tested at | quantity | value |
| --- | --- | --- | --- | --- | --- | --- | --- |
| O=C(Nc1cnc(Oc2ccc(F)cc2)nc1)N1CCc2ncccc2[C@@H]1c1ccc(F)cc1 | HTR1D (Homo sapiens, UniProt P28221) | binding | radioligand binding | – | 10 µM | inhibition | 4.38% |
| O=C1c2ccc(Nc3ccc(F)cc3F)cc2CCc2ccc(OC[C@H](O)CO)cc21 | HTR2B | cell-free assay | – | – | 10 µM | inhibition | 83.1% |
| Cc1c(NC(=O)c2cc(C(N)=O)nc3cc(F)ccc23)c(C(F)(F)F)nn1Cc1ccc(C(C)(C)C)cc1 | HTR2B | binding | radioligand binding | – | 10 µM | inhibition | -8.78% |
